Measured values from different studies.
Lines come from different studies, so protocols differ. Numbers after ± are the reported error.

With CC1=C2C[C@H]3[C@@H](CC[C@@H]4C[C@H](NS(C)(=O)=O)CC[C@@]43C)[C@@H]2CC[C@@]2(C1)O[C@@H]1C[C@H](C)CN[C@H]1[C@H]2C the Cmax was 13.1 ng/mL (patients, plasma; oral, 20 mg daily, day 22, cycle 1).
With COc1cccc(-c2n[nH]c(SCc3ccccn3)n2)c1OC the Cmax was 2060 ng/mL (Sprague-Dawley rat, both sexes, plasma; oral, diet, 30 mg/kg/day, day 7).
CC(C)[C@H](N)C(=O)NCCCS(=O)(=O)O gave a Cmax of 5440 ± 1670 ng/mL (human, both sexes, plasma; oral, 172 mg capsule).
CCCC[C@H](NC(C)=O)C(=O)N[C@H]1CCC(=O)NC[C@@H](C(=O)N[C@@H](Cc2c[nH]c3ccccc23)C(N)=O)NC(=O)[C@H](CCCNC(=N)N)NC(=O)[C@@H](Cc2ccccc2)NC(=O)[C@H](Cc2c[nH]cn2)NC1=O has a Cmax of 1010 ng/mL (beagle dog, female, plasma; subcutaneous, 40.0 mg/kg daily, day 1).
For Cc1cc(Nc2cc3ncccc3c(N[C@@H]3C[C@H]4CC[C@@H](C3)N4CCC#N)n2)n[nH]1, the Cmax was 37.4 ng/mL (Sprague-Dawley rat, female, plasma; oral, 100 mg/kg/day, last day of 13 weeks).
For CO[C@H]1C[C@@H]2CC[C@@H](C)[C@@](O)(O2)C(=O)C(=O)N2CCCC[C@H]2C(=O)O[C@H]([C@H](C)C[C@@H]2CC[C@@H](O)[C@H](OC)C2)CC(=O)[C@H](C)/C=C(\C)[C@@H](O)[C@@H](OC)C(=O)[C@H](C)C[C@H](C)/C=C/C=C/C=C/1C, the Cmax was 128 ng/mL (human, whole blood; oral, 15 mg, together with: grapefruit juice).
CS(=O)(=O)Nc1ccc(C(=O)O[C@@H](Cc2c(Cl)c[n+]([O-])cc2Cl)c2ccc(OC(F)F)c(OCC3CC3)c2)cc1OCC1CC1 gave a Cmax of 5.45 ng/mL (human, plasma; inhaled, 2000 µg twice daily, day 14, multi-dose dry powder inhaler).
O=c1[nH]c(=O)c(Cc2cccc(C(F)(F)F)c2)c([C@H]2CC[C@H](c3ccccc3)CC2)[nH]1 gave a Cmax of 216 ng/mL (human, fasted, plasma; oral, 300 mg single dose, geometric mean).
CC(C)NC[C@@H](C(=O)N1CCN(c2ncnc3c2[C@H](C)C[C@H]3O)CC1)c1ccc(Cl)cc1 gave a Cmax of 53 ng/mL (human, hepatic impairment Mild (Child-Pugh), plasma; oral, 100 mg single, geometric mean).
O=C(CCCCCCC(=O)Nc1ccccc1)NO gave a Cmax of 8.74 µM (patients, serum; oral, 1000 mg, cycle -1 day 2, alone).
For Cc1nc2cccc(OCC(C)(C)C(=O)NC(C)C)c2c(N)c1C(=O)O, the Cmax was 47.5 ng/mL (female Sprague-Dawley rat, plasma; dietary, 60 mg/kg/day, day 90).
